Results gathered from unrelated publications.
“And” joins repeats or separate records; there may be more than shown. ± gives the spread as reported.
CASP8: Caspase-8 (CASP8, Homo sapiens, UniProt Q14790)
MAPT: Microtubule-associated protein tau (MAPT, Homo sapiens, UniProt P10636)
PTPN11: Tyrosine-protein phosphatase non-receptor type 11 (PTPN11, Homo sapiens, UniProt Q06124)
CASP10: Caspase-10 (CASP10, Homo sapiens, UniProt Q92851)
ADRA1A: Alpha-1A adrenergic receptor (ADRA1A, Homo sapiens, UniProt P35348)

CNC(=O)C[C@H](Cc1ccc(C#N)cc1)NC(=O)c1cc(-c2ccc(CN[C@H](C)c3ccc(C)cc3)o2)ccc1Cl — result for “activity vs control”: 100% (PIP4K2A (Homo sapiens, UniProt P48426); enzyme activity, inhibitor; 1 µM).
The kinact/KI of CC(=O)N[C@@H](CC(C)C)C(=O)N[C@@H](CCC(=O)O)C(=O)N[C@H](C(=O)N[C@@H](CC(=O)O)C(=O)COC(=O)c1c(C)cccc1C)[C@@H](C)O is reported as 1.48e+06 M⁻¹ s⁻¹ (CASP8; enzyme activity, inhibitor).
Under “probe labelling ratio”, CCCCCC(O)/C=C/C=O (stereo not shown) is recorded as 0.63 (LONP1 (Homo sapiens, UniProt P36776); acylphosphate-ATP probe SILAC-ABPP; ZAK-transfected HEK293T; 100 µM, added: acylphosphate-ATP probe; baseline: DMSO over compound-treated).
For CC[C@H](C)[C@H](NC(=O)[C@@H](NC(=O)[C@H](CCCCN)NC(=O)[C@@H](NC(=O)CNC(=O)[C@@H](N)CCCNC(=N)N)[C@@H](C)O)C(C)C)C(=O)N[C@@H](CC(C)C)C(=O)N[C@@H](Cc1c[nH]cn1)C(=O)N[C@@H](CC(C)C)C(N)=O, the ThT fluorescence was 3 ± 3% (MAPT; fibril formation, ThT fluorescence; 5-fold of tau, at plateau, added: wild-type tau 10 µM, heparin; baseline: untreated).
Cc1cc(=O)oc2c(F)c(OP(=O)(O)O)c(F)cc12 gave a Km of 700 ± 40 µM (PTPN11; dephosphorylation, substrate; fully activated enzyme).
The kinact/KI of CC(=O)N[C@@H](CC(=O)O)C(=O)N[C@@H](Cc1ccc2ccccc2c1)C(=O)N[C@@H](C)C(=O)N[C@@H](CC(=O)O)C(=O)COC(=O)c1c(C)cccc1C is reported as 118000 M⁻¹ s⁻¹ (CASP10; enzyme activity, inhibitor).
With C=C1C(=O)C2(C(=O)N3CCC(F)(F)CC3)CC(=O)CC1C2 (racemic) the kinact/KI was 33.8 M⁻¹ s⁻¹ (PTPN11; enzyme activity, covalent inhibitor; added: pNPP substrate).
CC(=O)N[C@H](C(=O)N[C@@H](CCC(=O)O)C(=O)N[C@@H](CO)C(=O)N[C@@H](CC(=O)O)C(=O)COC(=O)c1c(C)cccc1C)[C@@H](C)O gave a kobs/[I] of 658000 M⁻¹ s⁻¹ (CASP8; inhibitor; recombinant enzyme).
With O=C1c2sc(-c3ccc(N4CCC(CO)CC4)nc3F)nc2CCN1c1cccnc1 the specific binding was 0.301 nM and 0.423 nM and 0.292 nM (TAR DNA-binding protein 43, aggregated (TARDBP, Homo sapiens, UniProt Q13148); radioligand binding; human, FTLD-TDP type C sarkosyl-insoluble extract; 26.56 nM).
With CC(C)(C(=O)N1CCC(Nc2nc3c(c(=O)[nH]2)CCCC3)CC1)c1ccc(Cl)cc1 the Hill slope was 1.29 (MRGPRD (Homo sapiens, UniProt Q8TDS7, N157A); miniGq recruitment, agonist, BRET; HEK293T; N157A mutant).
For CC[C@H](C)[C@@H]1NC(=O)[C@H](Cc2ccccc2)NC(=O)[C@H](CCC(=O)O)NC(=O)[C@H](CCCNC(=N)N)NC(=O)CNC(=O)[C@@H](NC(=O)[C@H](CC(C)C)NC(=O)[C@H](CCCNC(=N)N)NC(=O)[C@@H](NC(=O)CNC(=O)[C@H](Cc2ccc(O)cc2)NC(=O)[C@@H]2CCCN2C(=O)[C@H](C)NC(=O)[C@H](C)NC(=O)[C@@H](N)CCCNC(=N)N)C(C)C)CSSC[C@@H]2NC(=O)[C@@H](NC(=O)[C@H](CO)NC(=O)[C@H](CO)NC(=O)[C@H](CO)NC(=O)[C@H](CC(C)C)NC(=O)CNC(=O)[C@H](C)NC(=O)[C@H](CC(C)C)NC(=O)[C@@H](NC(=O)[C@@H](N)CC(=O)O)C(C)C)CSSC[C@H](NC(=O)CNC(=O)[C@H](Cc3c[nH]c4ccccc34)NC(=O)[C@H](CCCCN)NC2=O)C(=O)N[C@@H](CO)C(=O)N[C@@H](CCCCN)C(=O)N[C@@H](CO)C(=O)N[C@@H](CCC(=O)O)C(=O)N[C@@H]([C@@H](C)CC)C(=O)N[C@@H](CO)C(=O)N[C@@H](CO)C(=O)N[C@@H](CC(C)C)C(=O)N[C@H](C(=O)O)CSSC[C@@H](C(=O)NCC(=O)NCC(=O)N[C@@H](CO)C(=O)N[C@@H](CCCNC(=N)N)C(=O)N[C@@H](Cc2c[nH]c3ccccc23)C(=O)O)NC(=O)[C@H]([C@@H](C)O)NC(=O)[C@H](Cc2ccccc2)NC(=O)[C@H]([C@@H](C)CC)NC(=O)[C@H](C(C)C)NC(=O)[C@H](C)NC(=O)[C@H](CCCNC(=N)N)NC1=O, the cAMP accumulation was 1.56% and -1.46% and 1.41% (RXFP3 (Homo sapiens, UniProt Q9NSD7); agonist; 15.6 nM, wild-type receptor).
O=C(N1CCCC1)n1cc(-c2ccc(-c3ccccc3)cc2)nn1 has an SILAC ratio of 1.18 and 1.31 and 1.13 (Alpha/beta hydrolase domain-containing protein 17B (Abhd17b, Mus musculus, UniProt Q7M759); probe labelling, inhibitor, competitive ABPP-SILAC, refers to: Fam108b1; mouse T cells; concentration not given, 4 h, in situ, single peptide; baseline: treated over DMSO, lower = more inhibition).
O=c1c(-c2ccc(Cl)c(OCCN3CCOCC3)c2)coc2cc(O)ccc12 gave a DHEA metabolism of 1.86 (HSD3B1 (Homo sapiens, UniProt P14060); [3H]-DHEA conversion; LNCaP; 0.1 µM, normalized to protein, unit not given; baseline: vehicle).
For C#CCOC(=O)[C@@]1(C)C=C(C(=O)OC(C)(C)C)C(=O)CC1, “normalized kinase activity” read 0.389 and 0.486 and 0.501 (MAPK8 (Homo sapiens, UniProt P45983); enzyme activity, D-SENSOR; 133.3 µM, single replicate).
Cc1cc2oc(=O)cc(Cn3ccnc3)c2cc1C has an agonist activity of 1.69 ± 0.3% (ADRA1A; intracellular Ca2+ mobilization, agonist; COS-7; 500 µM; baseline: 3 µM ionomycin).
C[Si](C)(C)C[C@H](CN)CC(=O)O has an inhibition of 9% (L-type calcium channel, rat; binding, radioligand binding; 250 µM).
CC(C)[C@@H]1NC(=O)[C@H](Cc2ccccc2)NC(=O)CSC[C@@H](C(N)=O)NC(=O)[C@H](CCC(=O)O)NC(=O)[C@H](CO)NC(=O)[C@H](Cc2c[nH]c3cccc(Cl)c23)NC(=O)[C@H](C2CCCCC2)NC(=O)[C@H](C(C)C)NC(=O)[C@H](Cc2ccc(O)cc2)NC(=O)[C@H](CC(=O)O)NC(=O)[C@H](Cc2c[nH]c3ccccc23)NC(=O)[C@H](Cc2ccc(N)nc2)NC(=O)[C@H](Cc2c[nH]c3ccc(Cl)cc23)NC(=O)[C@H](CCC(=O)O)NC1=O has a remaining activity of 22.4% (Interleukin-1 receptor-like 2 (IL1RL2, Homo sapiens, UniProt Q9HB29); reporter gene (SEAP), inhibitor, HEK-Blue IL-36R reporter; HEK-Blue IL-36R cells; 0.41 µM, 6 h, added: IL-36β 0.03 ng/mL).
For CNC[C@H](O)c1cccc(OCCOCCOCC#Cc2cccc(Cn3c(-c4ccccc4)c(-c4ccccc4)c4c(=N)n([C@H]5CC[C@H](O)CC5)cnc43)c2)c1, the Dmax was 88% (ADRA1A; protein level, degrader, western blot; PC-3).
CC(=O)N[C@@H](CC(=O)O)C(=O)N[C@@H](CCCC(=O)O)C(=O)N[C@@H](CC(C)C)C(=O)N[C@@H](CC(=O)O)C(=O)COC(=O)c1c(C)cccc1C has a kobs/[I] of 260000 M⁻¹ s⁻¹ (CASP10; inhibitor; recombinant enzyme).
N#CN1CC[C@H](C(=O)Nc2nc3c(s2)CN(C(=O)Cn2cc(COCCOCCOCCOCCNC(=O)CCCC[C@@H]4SC[C@@H]5NC(=O)N[C@@H]54)nn2)CC3)C1 gave an iBAQ abundance of 1.25e+06 and 378000 and 1.12e+06 (USP24 (Homo sapiens, UniProt Q9UPU5); probe binding, affinity probe, neutravidin pull-down LC-MS/MS; HEK293T, cell lysate; 5 µM, 1 h, single replicate, unit not given; higher = more pulled down).
With CCn1cc(-c2cccc(C(F)(F)F)c2)c2sc(C(=N)NC3CCS(=O)(=O)CC3)cc2c1=O the ΔTm was 0.6 °C (KAT2A (Homo sapiens, UniProt Q92830)).
For CC(=O)N[C@@H](CC(=O)O)C(=O)N[C@@H](CCC(=O)O)C(=O)N[C@H](C(=O)N[C@@H](CC(=O)O)C(=O)COC(=O)c1c(C)cccc1C)C(C)C, the kinact/KI was 183000 M⁻¹ s⁻¹ (CASP10; enzyme activity, inhibitor).
The aggregation half-time of CC[C@H](C)[C@H](NC(=O)[C@@H](NC(=O)[C@H](CCCCN)NC(=O)[C@@H](N)[C@@H](C)O)C(C)C)C(=O)N[C@@H](CC(C)C)C(=O)N[C@@H](Cc1c[nH]cn1)C(N)=O is reported as 71 ± 7% (MAPT; fibril formation, ThT fluorescence; 0.1-fold of tau, 37 °C, added: wild-type tau 10 µM, heparin; baseline: untreated).
CC(=O)N1C[C@H](O)C[C@H]1C(=O)N[C@H](C(=O)N[C@@H](CO)C(=O)N[C@@H](CC(=O)O)C(=O)COC(=O)c1c(C)cccc1C)C(C)C gave a kinact/KI of 63000 M⁻¹ s⁻¹ (CASP10; enzyme activity, inhibitor).
With Cc1cc(C(=O)NCCNC(=O)c2cccc(COc3ccccc3C(N)=O)c2)n[nH]1 the inhibition was 5% (PARP1 (Homo sapiens, UniProt P09874); enzyme activity, inhibitor; 5 nM).
Under “normalised MST response”, CN(C)CCCSC(=S)N1CCN(C(=O)/C=C/c2coc3ccccc3c2=O)CC1 is recorded as 0.0239 (Nucleoprotein (N, Tomato spotted wilt virus, UniProt P25999); binding, microscale thermophoresis; 0.9766 µM; dose series).
For C1=[N+]2CCCC[N+]3=Cc4ccc5[n]4[Au-]23[n]2c1ccc2-c1nc2ccccc2nc1-5.F[P-](F)(F)(F)(F)F, the Hill coefficient was 1.7 (DNA topoisomerase 1 (TOP1, Homo sapiens, UniProt P11387)).
The hydrolysis of C[n+]1cn(C2OC(COP(=O)(O)OP(=O)([O-])C(F)(F)P(=O)(O)OP(=O)(O)OCC3OC(n4cnc5c(=O)[nH]c(N)nc54)C(O)C3O)C(O)C2O)c2nc(N)nc(O)c21 (stereo not shown) is reported as 13.7 ± 0.2% (DCPS (Homo sapiens, UniProt Q96C86); substrate, HPLC; concentration not given, 15 min).

Excerpt of the above:
With C=C1C(=O)C2(C(=O)N3CCC(F)(F)CC3)CC(=O)CC1C2 (racemic) the kinact/KI was 33.8 M⁻¹ s⁻¹ (PTPN11; enzyme activity, covalent inhibitor; added: pNPP substrate).
Under “normalised MST response”, CN(C)CCCSC(=S)N1CCN(C(=O)/C=C/c2coc3ccccc3c2=O)CC1 is recorded as 0.0239 (Nucleoprotein (N, Tomato spotted wilt virus, UniProt P25999); binding, microscale thermophoresis; 0.9766 µM; dose series).
